Earlier results as cited in several papers.
Compare with care: the assays were run in different laboratories.
UniProt Q8IVW4, sequence (whole entry, looked up): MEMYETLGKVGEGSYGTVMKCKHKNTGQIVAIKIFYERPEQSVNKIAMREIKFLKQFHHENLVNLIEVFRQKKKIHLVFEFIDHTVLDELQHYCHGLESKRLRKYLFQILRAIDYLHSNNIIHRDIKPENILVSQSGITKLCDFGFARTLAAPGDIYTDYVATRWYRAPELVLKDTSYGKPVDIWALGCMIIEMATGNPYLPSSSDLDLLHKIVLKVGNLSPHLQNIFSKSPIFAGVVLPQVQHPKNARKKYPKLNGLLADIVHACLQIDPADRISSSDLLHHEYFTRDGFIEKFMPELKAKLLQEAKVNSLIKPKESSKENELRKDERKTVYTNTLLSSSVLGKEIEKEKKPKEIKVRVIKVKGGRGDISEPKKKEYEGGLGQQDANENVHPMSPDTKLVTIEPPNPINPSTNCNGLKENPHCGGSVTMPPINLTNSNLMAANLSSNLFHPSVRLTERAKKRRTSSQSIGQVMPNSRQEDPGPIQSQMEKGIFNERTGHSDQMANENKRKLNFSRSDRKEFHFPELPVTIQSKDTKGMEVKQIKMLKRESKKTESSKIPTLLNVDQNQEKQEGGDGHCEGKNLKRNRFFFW

SMILES	target or system	assay	test system	setting	how to read	endpoint	value
CN[C@H]1CC[C@@H](c2ccc(Cl)c(Cl)c2)c2ccccc21			human	fixed in model		absorption rate constant	0.5 h⁻¹
Cn1ncnc1[C@H]1c2n[nH]c(=O)c3cc(F)cc(c23)N[C@@H]1c1ccc(F)cc1			human			absorption rate constant	1.22 h⁻¹
CC1(C)S[C@@H]2[C@H](NC(=O)[C@H](N)c3ccc(O)cc3)C(=O)N2[C@H]1C(=O)O		population PK	human			absorption rate constant	0.091 h⁻¹
Nc1cc(C(F)(F)F)c(-c2nc(N3CCOCC3)nc(N3CCOCC3)n2)cn1	Cyclin-dependent kinase-like 3 (CDKL3, Homo sapiens, UniProt Q8IVW4)	enzyme activity		10 µM	reference: untreated	remaining activity	85%
COc1cc2c(Oc3ccc4[nH]c(C)cc4c3F)ccnc2cc1OCC1(N)CC1			human	5 mg, high-fat meal	reference: fasted	absorption extent	~80%
CC1(C)CCC(CN2CCN(c3ccc(C(=O)NS(=O)(=O)c4ccc(NCC5CCOCC5)c([N+](=O)[O-])c4)c(Oc4cnc5[nH]ccc5c4)c3)CC2)=C(c2ccc(Cl)cc2)C1		legacy population PK model	human			absorption rate constant (Ka)	3.72 day⁻¹
CC(C)(C)c1cc(C(C)(C)C)c(NC(=O)c2c[nH]c3ccccc3c2=O)cc1O			human			absorption rate constant	5.19 h⁻¹
C[C@@H]1CCO[C@H]2Cn3cc(C(=O)NCc4ccc(F)cc4F)c(=O)c(O)c3C(=O)N12		population PK model	adult humans			absorption lag time	0.263 h
Cc1nn(C)cc1S(=O)(=O)NC(=O)c1ccc(-n2ccc(OCC(C)(C)C(F)(F)F)n2)nc1N1C[C@@H](C)CC1(C)C			human			absorption rate constant	0.59 h⁻¹
O=C(NC[C@H]1CN(c2ccc(N3CCOCC3=O)cc2)C(=O)O1)c1ccc(Cl)s1			human	Model B fixed		absorption rate constant	0.82 h⁻¹

A few entries again:
SMILES	target or system	assay	test system	setting	how to read	endpoint	value
CN[C@H]1CC[C@@H](c2ccc(Cl)c(Cl)c2)c2ccccc21			human	fixed in model		absorption rate constant	0.5 h⁻¹
